# Measured values collected from several papers.
# Each line is one published result; not all experiments were run side by side. Several values in a cell are separate wells, animals, samples, runs or records. Numbers after ± are the reported error.
Compound,cell line,test,setting,how to read,quantity,value
COC(=O)c1cc(NC2=NC(=O)C(=Cc3ccc(N(C)C)cc3)S2)ccc1OC(C)=O,MCF7,"GC-MS, item: 1,3-propanediol",1 µM,reference: DMSO,metabolite level,-1.03 fold change
CNS(=O)(=O)Nc1nccc(Cc2c(C)c3ccc(Oc4ncccc4F)cc3oc2=O)c1F,LS-123,cell viability,7 days,,IC50,408 nM
CC(C)(C)c1cc(-c2ccc3cc4ccccc4nc3n2)nc(-c2ccc3cc4ccccc4nc3n2)c1.[Cl-].[Cl-].[Ru+2].c1ccc2cc3nc4c5cccnc5c5ncccc5c4nc3cc2c1,A-375,resazurin,"together with: light 633 nm, 100 J/cm2",reference: dark EC50 over light EC50,phototoxicity index,2
CC(C)(COP(=O)(O)OP(=O)(O)OC[C@H]1O[C@@H](n2cnc3c(N)ncnc32)[C@H](O)[C@@H]1OP(=O)(O)O)[C@@H](O)C(=O)NCCC(=O)NCCSCCC(=O)N[C@@H](CO)C(=O)NCC(=O)N[C@@H](CCCNC(=N)N)C(=O)NCC(=O)N[C@@H](CCCCN)C(=O)NCCCC[C@H](NC(=O)CC[C@@H]1NC(=O)[C@@H](CCCNC(=N)N)NC(=O)[C@H](CCCNC(=N)N)NC(=O)[C@@H](CCCNC(=N)N)NC(=O)[C@H](CCCNC(=N)N)NC(=O)[C@H](Cc2csc3ccccc23)NC(=O)[C@@H](Cc2ccccc2)NC(=O)[C@H](Cc2ccccc2)NC1=O)C(N)=O,A549,"vimentin expression, Western blot","10 µM, 2 days",,inhibition,~40%
Cn1ncc2cc(-c3cncc(Cl)c3N3CCC4(CCNC4=O)CC3)ccc21,LS174T,"gene expression, microarray, item: CCL20 mRNA","concentration not given, 24 h",reference: untreated cells,log2 fold change,4.72
CN1CC[C@@H](COc2cnc(C#N)cc2-c2ccn3nc(NC(=O)C4CC4)cc3c2)C1,C57BL/6 mouse BMDC,"IL-10 release, inducer","3 h, together with: LPS",,EC50,630 nM
CCN(C(=O)c1cc(F)ccc1Oc1nncnc1N1CCC2(C1)CN([C@H](CCCN(C)CCOC)C(C)C)C2)C(C)C,NCI-H292,cell growth or viability,72 h,,GI50,> 10000 nM
Cn1c(=O)n(C2CCC(=O)NC2=O)c2ccc(C3CCN(CC(=O)Nc4cccc(CS(=O)(=O)N5CC[C@H](Nc6cccc(-c7sc(C(=O)O)c(OCC(=O)O)c7Cl)c6)CC5(C)C)c4)CC3)cc21 (stereo partly drawn),B16-F10,"HTRF, item: phospho-STAT1 Tyr701","10 µM, together with: IFN-γ",reference: DMSO,fold change,5.77 and 5.5 and 5.17 and 4.36 and 5.37 and 5.57
O=C(Nc1nnc2c1c(-c1ccc(Cl)cc1)nc1sc(=Cc3ccco3)c(=O)n12)c1ccccc1 (mixture of isomers),NCI-H322M,SRB,"10 µM, NCI60 single-dose screen",reference: untreated,cell growth,40%
COc1cccc(OC)c1-c1cc(C(=O)NC2(C(=O)O)C3CC4CC(C3)CC2C4)nn1-c1ccc(C(=O)N(C)CCOCCN(C)C(=O)[C@H](CCCCNC(=O)[C@H](CC(C)C)NC(=O)C2OC2C(=O)O)NC(=O)CN2CCN(CC(=O)[O-])CCN(CC(=O)[O-])CCN(CC(=O)[O-])CC2)cc1C(C)C.[177Lu+3] (mixture of isomers),HT-29,,"240 min, 4 h",reference: added activity,internalized fraction,3.74 ± 0.43%
Cc1ncsc1-c1ccc(C(C)NC(=O)C2CC(O)CN2C(=O)C(NC(=O)CCCCCCCCCCN2CCCC(Nc3ncc(Cl)c(Nc4ccccc4S(=O)(=O)C(C)C)n3)C2)C(C)(C)C)cc1 (stereo not drawn),22Rv1,"RNA-seq, item: TNFRSF10C mRNA",concentration not given,reference: DMSO,log2 fold change,-4.42
Cc1cc(Cl)cc(-c2ccnc3cc(CN4C(=O)C5C(C4=O)C5(C)C)sc23)c1C[C@@H]1CNCCO1 (stereo partly drawn),CHP-212 parental (wild-type USP7),PI flow cytometry,"1 µM, 24 h",,cells in G1 phase,77.3% and 74.1% and 69.2%
CC#CC#C/C=C1/O[C@@]2(CCCCO2)[C@@H](O)[C@@H]1OC(C)=O,RAW264.7,Western blot,"concentration not given, together with: LPS",,ERK phosphorylation,decreased
CO[C@@H]1[C@@H](OC(N)=O)[C@@H](O)[C@H](Oc2ccc3c(O)c(NC(=O)c4ccc(O)c(CC=C(C)C)c4)c(=O)oc3c2C)OC1(C)C,HCT-116 BRCA2-/-,,"50 µM, replicate 2",,colony count,28.5
CCN(CC)CC(=O)Nc1cccc(-n2cc(-c3ccc4ccc(-c5cn(-c6cccc(NC(=O)CN(CC)CC)c6)nn5)cc4c3)nn2)c1,RCC4,"PCR angiogenesis array, item: NOS3","5 x IC50, 6 h, normoxia",reference: untreated,fold regulation,1.06
CN1CCCNC(=O)c2cccc(c2)C(=O)NCCCN(C)CCCNc2cccc3c2C(=O)c2cccc(c2C3=O)NCCC1,SAS,"RNA-Seq, item: XRN1 mRNA","1 µM, 6 h",reference: untreated cells,log2 fold change,-0.896
CC(C)c1ccc(N(C)c2ccc3c(c2)OCC[C@H]3CNc2cnccc2C(=O)O)cc1,SW1463,"cell growth or viability, ATP luminescence",7 days,,IC50,9.24 nM
C=C1CC2(C(=O)OC)C=C(C(=O)OC(C)(C)C)C(=O)C1C2 (stereo not drawn),AP-1 reporter HEK293,"AP-1 reporter gene, luciferase reporter","1 µM, 6 h, together with: PMA 6 ng/mL",reference: PMA alone,luminescence relative to PMA,0.889
O=C(NCc1cc(F)cc(F)c1)[C@@]1(O)CCN(c2ccc3[nH]ccc3c2)C1=O,PDX-derived bladder tumour cells,"colony formation, inhibitor, soft agar clonogenic",8-13 days,,maximal inhibition,64%
Cc1cc(C)nc(SCC(=O)Nc2ncc(Cc3cccc(OCc4cn(-c5ccc(Cl)cc5)nn4)c3)s2)n1,PC-3M-luc,"colony formation, colony forming",1 µM,,inhibition,17 ± 9.9%
Cc1ccc(-n2cc(CSc3nc4ccccc4n3Cc3cn(-c4ccc(C)cc4)nn3)nn2)cc1,HEK293,MTT,7.81 ppm,,cytotoxicity,13.8%
COc1cc(N2CCN(C(=O)CCOCCNC(=O)[C@@H]3CCCN3)CC2)ccc1Nc1ncc(Cl)c(Nc2ccccc2P(C)(C)=O)n1,NCI-H3122,annexin V/PI flow cytometry,"500 nM, 24 h",,late apoptotic cells,2.4%
O=C1CC[C@H](N2Cc3cc(-c4ccn5ncc(Cl)c5n4)ccc3C2=O)C(=O)N1,MOLM-13,"protein level, TMT proteomics, item: AACS","1 µM, 6 h",reference: DMSO,log2 fold change,-0.0326
O=C(Nc1cccc(Sc2ccc3c(/C=C/c4ccccn4)n[nH]c3c2)c1)c1ccco1,Ba/F3 TEL-VEGFR1,"cell growth, CCK-8",,,GI50,4200 nM
C=CC(=O)N1C[C@H](C)N(c2nc(OC[C@@]34CCCN3C[C@H](F)C4)nc3c(F)c(-c4ccc(F)c5sc(N)c(C#N)c45)c(C(F)(F)F)cc23)C[C@H]1C,NCI-H358 (KRAS G12C heterozygous),"ERK phosphorylation, covalent inhibitor, HTRF, item: pERK",,,kinact,0.00047 s⁻¹
COc1ccccc1-c1ccncc1C(=O)Nc1nnc(OCc2ccc(Cl)cc2)s1,MDA-MB-231 BRCA1 wild-type,,0.375 µM,reference: vehicle control,colony survival,103% and 92.6%
CN(C)c1ccc(-n2cc(COC(=O)[C@]3(C)C=C(C(=O)OC(C)(C)C)C(=O)CC3)nn2)cc1,AP-1 reporter HEK293,"AP-1 reporter gene, luciferase reporter","1 µM, 6 h, together with: PMA 6 ng/mL",higher = more transcription,luminescence,7860 a.u.
Cn1ncc(-c2ccc3c(=O)[nH]nc(CN)c3c2)c1-c1c(F)c(Cl)cc(OC2CC2)c1C#N,SU-DHL-1,"cell viability, inhibitor, CellTiter-Glo","120 h, baseline-subtracted",,IC50,20 nM
CC(C)(C)c1cc(-c2ccc3cccnc3n2)nc(-c2ccc3cccnc3n2)c1.[Cl-].[Cl-].[Ru+2].c1ccc2cc3nc4c5cccnc5c5ncccc5c4nc3cc2c1,A-375,resazurin,"together with: light 523 nm, 20 mW, 100 J/cm2",,EC50,4870 nM
Cc1ncsc1-c1ccc([C@H](C)NC(=O)[C@@H]2C[C@@H](O)CN2C(=O)[C@@H](NC(=O)CN2CCN(CC3CCN(CC(=O)N4CCN(c5ncc(-c6cc(NC(=O)c7ccc(F)cc7C(F)(F)F)c(N7C[C@@H](C)N(C)[C@@H](C)C7)cc6F)cn5)CC4)CC3)CC2)C(C)(C)C)cc1,Sf9,"global proteomics, item: XP_035429818.1",10 µM,reference: DMSO,log2 fold change,-1.45
O=C(C[Se]C(=O)c1cccnc1Nc1cccc(C(F)(F)F)c1)Nc1cccc(C(F)(F)F)c1,"LNCaP, serum starved",flow cytometry,"IC50, 48 h",,G0/G1 phase cells,69.8%
[Cl-].[Cl-].[Ru+2].c1cc(-c2ccc3cccnc3n2)nc(-c2ccc3cccnc3n2)c1.c1ccc2cc3nc4c5cccnc5c5ncccc5c4nc3cc2c1,A-375,resazurin,"together with: light 523 nm, 20 mW, 100 J/cm2",,EC50,14000 nM
COc1ccc(NC(=O)c2ccc3[nH]c(-c4ccc(N(C)C)cc4)nc3c2)cn1,HCT116,IncuCyte,"concentration not given, 16 h",,dead cell to confluence ratio,277 and 59.4 and 158

# For quick reference, copied from above:
Compound,cell line,test,setting,how to read,quantity,value
CC(C)(C)c1cc(-c2ccc3cc4ccccc4nc3n2)nc(-c2ccc3cc4ccccc4nc3n2)c1.[Cl-].[Cl-].[Ru+2].c1ccc2cc3nc4c5cccnc5c5ncccc5c4nc3cc2c1,A-375,resazurin,"together with: light 633 nm, 100 J/cm2",reference: dark EC50 over light EC50,phototoxicity index,2
CCN(CC)CC(=O)Nc1cccc(-n2cc(-c3ccc4ccc(-c5cn(-c6cccc(NC(=O)CN(CC)CC)c6)nn5)cc4c3)nn2)c1,RCC4,"PCR angiogenesis array, item: NOS3","5 x IC50, 6 h, normoxia",reference: untreated,fold regulation,1.06
CC#CC#C/C=C1/O[C@@]2(CCCCO2)[C@@H](O)[C@@H]1OC(C)=O,RAW264.7,Western blot,"concentration not given, together with: LPS",,ERK phosphorylation,decreased
Cn1ncc2cc(-c3cncc(Cl)c3N3CCC4(CCNC4=O)CC3)ccc21,LS174T,"gene expression, microarray, item: CCL20 mRNA","concentration not given, 24 h",reference: untreated cells,log2 fold change,4.72
CC(C)c1ccc(N(C)c2ccc3c(c2)OCC[C@H]3CNc2cnccc2C(=O)O)cc1,SW1463,"cell growth or viability, ATP luminescence",7 days,,IC50,9.24 nM
